# Earlier results as cited in several papers.
# Amino acid sequences for entries named in this document (tags omitted). Residues count along the entry.
# UniProt P9WPP7, whole entry: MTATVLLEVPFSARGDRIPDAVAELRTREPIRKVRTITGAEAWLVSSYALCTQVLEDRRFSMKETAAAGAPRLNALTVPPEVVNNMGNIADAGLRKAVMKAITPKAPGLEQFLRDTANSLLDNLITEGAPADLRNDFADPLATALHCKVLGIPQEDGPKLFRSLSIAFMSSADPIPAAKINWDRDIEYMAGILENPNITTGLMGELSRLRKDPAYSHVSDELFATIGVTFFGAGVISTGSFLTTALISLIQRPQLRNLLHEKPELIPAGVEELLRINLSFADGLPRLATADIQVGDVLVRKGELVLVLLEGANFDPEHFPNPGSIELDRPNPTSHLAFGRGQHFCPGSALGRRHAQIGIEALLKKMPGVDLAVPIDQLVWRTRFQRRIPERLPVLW
# UniProt P41145, whole entry: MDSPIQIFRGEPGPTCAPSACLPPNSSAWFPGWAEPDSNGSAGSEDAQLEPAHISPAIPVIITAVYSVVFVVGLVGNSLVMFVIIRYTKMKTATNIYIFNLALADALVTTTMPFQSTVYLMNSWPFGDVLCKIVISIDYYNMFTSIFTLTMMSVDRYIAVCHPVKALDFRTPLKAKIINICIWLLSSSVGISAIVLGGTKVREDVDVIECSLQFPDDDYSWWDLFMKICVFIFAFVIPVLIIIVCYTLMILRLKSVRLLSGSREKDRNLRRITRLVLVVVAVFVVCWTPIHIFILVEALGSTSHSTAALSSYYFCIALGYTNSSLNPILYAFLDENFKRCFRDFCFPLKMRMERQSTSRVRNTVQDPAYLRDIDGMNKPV
# UniProt O33336, whole entry: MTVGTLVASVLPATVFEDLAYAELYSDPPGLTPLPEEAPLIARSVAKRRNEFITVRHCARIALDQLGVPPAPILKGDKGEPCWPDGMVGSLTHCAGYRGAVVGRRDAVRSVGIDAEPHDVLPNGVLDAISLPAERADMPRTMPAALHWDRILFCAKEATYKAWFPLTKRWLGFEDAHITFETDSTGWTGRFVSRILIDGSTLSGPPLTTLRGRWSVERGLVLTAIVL
# UniProt P41144, whole entry: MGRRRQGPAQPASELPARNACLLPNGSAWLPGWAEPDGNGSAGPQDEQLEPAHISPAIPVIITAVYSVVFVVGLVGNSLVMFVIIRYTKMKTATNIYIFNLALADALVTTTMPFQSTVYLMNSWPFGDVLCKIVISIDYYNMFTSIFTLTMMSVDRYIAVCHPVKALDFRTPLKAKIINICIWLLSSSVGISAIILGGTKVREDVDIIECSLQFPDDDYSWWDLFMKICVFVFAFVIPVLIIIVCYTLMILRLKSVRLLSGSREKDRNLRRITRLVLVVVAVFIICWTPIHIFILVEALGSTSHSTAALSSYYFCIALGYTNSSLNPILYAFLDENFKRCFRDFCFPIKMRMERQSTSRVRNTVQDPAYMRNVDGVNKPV
# UniProt P25103, whole entry: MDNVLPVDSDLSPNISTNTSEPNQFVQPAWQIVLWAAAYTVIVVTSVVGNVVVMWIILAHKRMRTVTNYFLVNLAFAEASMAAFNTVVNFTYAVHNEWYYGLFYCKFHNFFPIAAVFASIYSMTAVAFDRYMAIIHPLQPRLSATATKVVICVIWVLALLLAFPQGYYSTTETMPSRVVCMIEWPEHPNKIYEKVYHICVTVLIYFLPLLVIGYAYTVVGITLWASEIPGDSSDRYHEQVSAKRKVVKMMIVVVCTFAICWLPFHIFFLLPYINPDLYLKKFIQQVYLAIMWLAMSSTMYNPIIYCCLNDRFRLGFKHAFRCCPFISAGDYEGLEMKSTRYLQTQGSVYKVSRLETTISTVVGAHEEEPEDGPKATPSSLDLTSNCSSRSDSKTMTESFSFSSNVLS
# UniProt Q38C91, 1-773: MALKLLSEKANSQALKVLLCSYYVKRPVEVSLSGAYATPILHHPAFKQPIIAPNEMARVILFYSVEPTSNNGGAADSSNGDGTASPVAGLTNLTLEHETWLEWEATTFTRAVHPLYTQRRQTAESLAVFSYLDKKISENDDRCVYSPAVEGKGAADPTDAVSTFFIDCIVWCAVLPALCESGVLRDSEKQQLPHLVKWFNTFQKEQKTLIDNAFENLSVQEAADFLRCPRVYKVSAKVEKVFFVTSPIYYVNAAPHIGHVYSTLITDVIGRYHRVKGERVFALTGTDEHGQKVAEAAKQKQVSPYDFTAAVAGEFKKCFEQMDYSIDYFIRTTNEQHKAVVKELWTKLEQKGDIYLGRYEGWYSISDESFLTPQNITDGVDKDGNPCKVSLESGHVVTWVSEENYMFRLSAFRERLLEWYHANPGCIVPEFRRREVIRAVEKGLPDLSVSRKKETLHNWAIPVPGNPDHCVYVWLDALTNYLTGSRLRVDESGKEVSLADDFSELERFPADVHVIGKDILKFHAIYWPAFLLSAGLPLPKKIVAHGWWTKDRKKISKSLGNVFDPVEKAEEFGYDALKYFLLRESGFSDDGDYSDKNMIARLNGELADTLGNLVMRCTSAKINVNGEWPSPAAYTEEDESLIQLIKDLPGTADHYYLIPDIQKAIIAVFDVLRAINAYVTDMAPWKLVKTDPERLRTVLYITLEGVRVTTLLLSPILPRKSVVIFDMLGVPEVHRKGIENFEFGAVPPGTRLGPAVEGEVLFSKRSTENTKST
# UniProt P28065, whole entry, looked up: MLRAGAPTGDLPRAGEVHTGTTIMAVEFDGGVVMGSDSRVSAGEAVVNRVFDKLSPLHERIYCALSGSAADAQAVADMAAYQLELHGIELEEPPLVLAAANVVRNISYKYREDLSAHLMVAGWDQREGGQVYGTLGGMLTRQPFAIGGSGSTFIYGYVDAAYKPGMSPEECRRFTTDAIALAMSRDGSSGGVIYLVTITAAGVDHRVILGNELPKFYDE
# UniProt P40306, whole entry, looked up: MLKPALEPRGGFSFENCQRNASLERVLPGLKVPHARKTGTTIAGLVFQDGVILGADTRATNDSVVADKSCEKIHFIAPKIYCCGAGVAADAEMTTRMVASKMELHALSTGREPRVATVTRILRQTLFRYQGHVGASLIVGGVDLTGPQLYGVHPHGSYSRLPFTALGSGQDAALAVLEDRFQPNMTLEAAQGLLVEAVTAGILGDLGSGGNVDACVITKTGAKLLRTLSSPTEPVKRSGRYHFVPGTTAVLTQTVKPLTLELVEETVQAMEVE
# UniProt P9WHE9, whole entry: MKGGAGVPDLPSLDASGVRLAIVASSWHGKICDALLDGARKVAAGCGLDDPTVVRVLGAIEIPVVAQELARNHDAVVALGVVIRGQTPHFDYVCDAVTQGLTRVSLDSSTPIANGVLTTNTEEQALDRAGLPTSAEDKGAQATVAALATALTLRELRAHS
# Protocols differ between the studies behind these lines. ± gives the spread as reported.
# cyp121: Mycocyclosin synthase (cyp121, Mycobacterium tuberculosis, UniProt P9WPP7)
SMILES,tested on,assay,test system,setting,quantity,value
Ic1ccc(CSCn2ccnc2)cc1,"OPRK1 (Homo sapiens, UniProt P41145)",,,,Ki,> 10000 nM
O=c1c2ccccc2[nH]c(=S)n1Cc1cccnc1,"4'-phosphopantetheinyl transferase PptT (Mycobacterium tuberculosis, UniProt O33336)","enzyme activity, inhibitor",,,IC50,790 nM
Cc1cc(O)cc(C)c1C[C@@H]1NC[C@H](CCCCN)NC(=O)[C@H](Cc2ccccc2)NC(=O)[C@@H](CCCNC(=N)N)NC1=O,"OPRK1 (Cavia porcellus, UniProt P41144)",,,,Ki,60.9 ± 0.6 nM
NCCNCCSc1ccccc1,,,plasma,"1 µg/mL, 30 days, -20 °C",long-term stability,92.1 ± 3.16 % remaining
c1ccc(-c2cc(Cn3ccnc3)cc(-c3ccccc3)c2)cc1,cyp121,,,,Kd,1300 ± 400 nM
Cc1cnc(Nc2ccc(F)cc2Cl)nc1-c1c[nH]c(C(=O)N[C@H](CO)c2cccc(Cl)c2)c1,ERK,binding,in vitro,,Kd,0.11 nM
CC(C)(C)c1cc[n+](CCCCCCCC[n+]2ccc(C(C)(C)C)cc2)cc1,,,mouse,"intramuscular, 24 h",LD50,33.4 mg/kg
Cc1cc(O)cc(C)c1C[C@H](N)C(=O)N[C@H](CCCNC(=N)N)C(=O)N[C@H]1Cc2ccccc2CN(CC(=O)N(C)Cc2cc(C(F)(F)F)cc(C(F)(F)F)c2)C1=O,"TACR1 (Homo sapiens, UniProt P25103)",,,,Ki,0.5 nM
CN(CCNCc1cc(Cl)cc(Cl)c1)c1nc2nc(Cl)ccc2[nH]1,"Methionyl-tRNA synthetase, putative (Trypanosoma brucei brucei, UniProt Q38C91)","enzyme activity, ATP depletion",,,IC50,< 50 nM
c1ccc2c[n+](CCCCCCCC[n+]3ccc4ccccc4c3)ccc2c1,,,"rat, plasma","intramuscular, 5% of LD50",half-life,50.5 ± 8.8 min
CC(=O)N1CCC[C@@H]1C(=O)N[C@@H](C)C(=O)N[C@@H](Cc1ccccc1)B(O)O,"Proteasome subunit beta type-9 / Proteasome subunit beta type-10 (Homo sapiens, UniProt P28065+P40306)","β1i activity, inhibitor",,,IC50,8 ± 2 nM
Cc1ccc(Cn2cnc3ccccc32)cc1C,cyp121,,,,Kd,> 100000 nM
CCC(=O)Nc1c(NC[C@H](O)[C@H](O)[C@H](O)CO)[nH]c(=O)[nH]c1=O,"ribH (Mycobacterium tuberculosis, UniProt P9WHE9)",inhibitor,,pH 7.0,Ki,110000 ± 14000 nM
